Experimental data pooled from the literature.
Every numbered part comes from another study and shows a few of its results, in no order. Substitutions count along the parent as printed.

Set 1
Target: RNA binding protein fox-1 homolog 2, RRM domain, GST-SBP tag (RBFOX2, Homo sapiens, UniProt O43251-10, residues 100-194)
Method: RNA Bind-n-Seq
Form: RNA
Medium: in vitro
Tested at: 365 nM
Setting: natural RNA segment, single round, ends assumed
Reference: no-protein control
Direction: higher = stronger binding
Construct (chain): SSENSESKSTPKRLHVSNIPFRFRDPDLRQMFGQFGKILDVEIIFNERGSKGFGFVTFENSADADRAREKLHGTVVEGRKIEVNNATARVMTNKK
Oligonucleotide	RBNS enrichment (R)
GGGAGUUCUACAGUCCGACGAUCUACCUUCCAGUGCAAAUCCUGCUCCUUUGAUUUAAUGGGGUGUACUGGGGCCAGGGGCUGAUUCACUUCCUUGGGAGAUGGUGGUGUUUUCAUGAACAUCUUUGAUCCUUUGGAAUUCUCGGGUGCCAA	0.307
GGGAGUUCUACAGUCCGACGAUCAUUCCAAGAGUAGUGGUGUAAAUUGCCUUGGAGCCCUGCAUCCACGUCUUGUAACUAACUUUUGAAUUUUGCCUGACAUGAUUCUCUCUUGAUGAAGAAAUGACAUAUAUUGGAAUUCUCGGGUGCCAA	0.735
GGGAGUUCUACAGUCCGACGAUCAAGGUUUCUUAUGCCCAAGCUUGAAAAAUGAUUUCCCAGUAGACAAGAGGCGGCUACCUAUCCUACAGUUACGGUAUUUAUUUACAUAAGAAGAUCUUACAGGAGUUCUUUGGAAUUCUCGGGUGCCAA	0.651
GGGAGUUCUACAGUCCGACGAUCAGGGGUGUUUUUACUGUGUUUUUGUCGUUUCCUUUUUACGUGUGCUGUGAUGAAAGAGAAAAAUGCAGAGUGCCAGUCACUGUGGUGUCUGGGGGAAAUCACCGGGGUUCUGGAAUUCUCGGGUGCCAA	1.58
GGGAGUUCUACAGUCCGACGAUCGCCAAGCUGGUGUCUCUAGGAGGGCCCACACAGGCACCCUGGAUCCCCCAGAGAGUAGAUUGGUGUGCUCAGGCCGCAGGCUGACUCAGAGGUAGGGCAGUGGGCUCUGCUGGAAUUCUCGGGUGCCAA	0.562
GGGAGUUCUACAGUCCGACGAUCCGUUUAUGUUGGUCGCAUCAAACAGCUUGUGGGAUUGUUUCCUCUUCUGUACAUGUUUUCCCCUUUGGUGAUACCCAGUGGUCCCAGCUAAUGGUGUCUGAGCAUAGUCAUGGAAUUCUCGGGUGCCAA	1.27
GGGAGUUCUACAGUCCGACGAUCCUGCUUUCAGGAAGAUACAAAGAAACCACAUGAACUAGACCAGCAUCUGUGAACAUUGUGCUAUGUUCCACCUUGUUUGAAAACUGUGAAACAGUGUGGCAUGCCAACAUUGGAAUUCUCGGGUGCCAA	1.09
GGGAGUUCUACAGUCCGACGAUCACUUUACUACAGUUGUGAAUUAGUUUAAACCGUACAAUGUUGUUAUCAUAUCAUGCUUCAACUAUUAAAUUAAGCCCAUCAUAUCAUAGCACUAAAAAGAUUGAGUUAAAUGGAAUUCUCGGGUGCCAA	0.304
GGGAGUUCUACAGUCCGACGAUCUAUUUGCACAGUUUUUGCGUCUUGUUUGCUUCUUGCAUCUGAUUAACUAGAAUAUUUCUCUUUCCCCCUUUUAAUUUGUGAUGUCACUUGACCCCAUUUAUGUGUAGGAGUGGAAUUCUCGGGUGCCAA	4.34
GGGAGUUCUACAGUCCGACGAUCACGUACUGCUGGUUGAAUAUCUGAGGUAAAUGAUGUUCAAUCAAGAUGCUACUUGUAUCAUUUUGCCCAUAAAUGGAUAAAUAAUUUUAUGCAUAUCAUACCAAAUGUUCUGGAAUUCUCGGGUGCCAA	0.325
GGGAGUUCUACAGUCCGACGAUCUUUUCUCCCCCUUUUCUUUGUUGUUUUCGUUGUUGUUGAUAACAAACUGGAAACCUGUCUCUCUCUGUUUGUGGACAAAUGAGAGGUUUCAGAUGCAGUGAGGAGCACUGUGGAAUUCUCGGGUGCCAA	0.365
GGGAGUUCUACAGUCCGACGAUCUCCACAGCCCACACGUGAGCUCCCUCCUCACCCCCAGGCAGGGAAGCCCCUCCUGCCAGUCCCUGUCCCCUUUCAGCCCACCAGUCCCUCUCUGCUGCCGGUGAUGGGAGUGGAAUUCUCGGGUGCCAA	0.793

Set 2
Target: Histone acetyltransferase KAT6A, winged helix 2, GST fusion (KAT6A, Homo sapiens, UniProt Q92794, residues 85-181)
Method: protein binding microarray
Form: double-stranded DNA, one strand shown
Medium: in vitro
Tested at: not given
Setting: 8-mer, flanks averaged, mean of 2 arrays, mostly near background
Reference: not given
Direction: higher = stronger binding
Residues (chain): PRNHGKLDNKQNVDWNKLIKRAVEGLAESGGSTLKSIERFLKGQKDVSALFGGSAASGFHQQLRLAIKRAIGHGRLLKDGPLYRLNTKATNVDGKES
Oligonucleotide	E-score
CCGACCAC	0.0614
AAATAGCT	-0.198
CTGATTTA	-0.092
CACAAGGA	0.0673
ATAGCCCC	-0.196
AGTATGGG	0.0217
ACGCACAT	-0.0761
ACTCCGTG	0.147
ATCGAGCG	0.0684
AGTGGGTA	0.063
CGGGTTAG	-0.186
CAGCGATG	-0.014
ACGCTCGA	-0.092
GAAAAATA	-0.102
AGCCTCAA	0.0194
AGAGGGAT	-0.112
ACGCGAAA	0.0909
CGTTCCTC	-0.149
CGGAGAGA	0.15
CCCTATTC	-0.223
AGAAAACG	0.0723
GTCGGCGA	0.196

Set 3
Target: BATF3, bZIP domain (human)
Method: DHFR protein complementation
Medium: yeast
Setting: single substitutions, most at no-binding floor
Reference: wild-type JUN-FOS pair
Direction: higher = stronger binding
Starting sequence: JUN, bZIP domain (human); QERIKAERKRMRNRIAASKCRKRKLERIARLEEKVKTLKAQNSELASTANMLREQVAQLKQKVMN; partner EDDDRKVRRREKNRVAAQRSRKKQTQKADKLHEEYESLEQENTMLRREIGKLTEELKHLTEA
Substitution	binding fitness [natural log]
N42E	-0.424
Q41I	0.183
A29R	0.13
E54W	0.0202
L31N	0.123
T48L	0.18
V35P	-1.05
T37A	0.264
Q55V	-0.0345
R30Q	0.22
A49F	0.0592
V56S	-0.141
Q41E	0.207
K34H	0.241
T48V	0.172
A46P	-1.09
R53P	-1.11
A29F	0.147
A29T	0.171
S43F	0.161
Q41C	-0.694
R30F	0.204
K36L	0.225
L31S	0.0974

Set 4
Target: RING finger protein unkempt homolog, zinc fingers 1-6, GST-SBP tag (UNK, Homo sapiens, UniProt Q9C0B0, residues 30-357)
UniProt Q9C0B0, sequence (30-357, looked up): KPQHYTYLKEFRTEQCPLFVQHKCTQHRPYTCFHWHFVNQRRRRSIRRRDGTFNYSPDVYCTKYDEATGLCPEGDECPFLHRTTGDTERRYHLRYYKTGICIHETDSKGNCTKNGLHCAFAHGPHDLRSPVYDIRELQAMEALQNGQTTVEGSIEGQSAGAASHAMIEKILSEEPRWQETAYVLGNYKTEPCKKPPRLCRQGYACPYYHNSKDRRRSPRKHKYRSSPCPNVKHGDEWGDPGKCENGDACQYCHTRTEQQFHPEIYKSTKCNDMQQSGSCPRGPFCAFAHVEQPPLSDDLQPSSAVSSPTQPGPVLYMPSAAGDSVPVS
Method: RNA Bind-n-Seq
Form: RNA
Medium: in vitro
Tested at: not given
Setting: RNA with constant flanks, ends assumed
Reference: input RNA pool
Direction: higher = stronger binding
Oligonucleotide	bound/input enrichment [ratio]
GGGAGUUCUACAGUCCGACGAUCUUGAAGGUACUGGGAACAGCUUUUGAUCCUUUCUUAGGAGGAAAAAACUUCGAUGAAAAGUCCGUGGAACAUUUUUGUGCAGAAUUUAAAACUAAGUACAAGUUGGAUGCAAAAUCCAAACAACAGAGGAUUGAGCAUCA	0.0699
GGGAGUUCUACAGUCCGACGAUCCUGUUGGGGUGGGUAUAAAAGAUGGGGUCUGUAAAAUCUUUCUUUCUUAGAAAUUUAUUUCCCCGUUCUGUAGAAAUGGUUGUAUUAGAUGUUCUCUAUCAUUUAAUAAUAUACUUGUGGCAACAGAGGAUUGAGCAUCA	0.825
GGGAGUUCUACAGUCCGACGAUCGUGAAACUGGUUCUUCCAAAGACCAAGUUUUCUAUGGUGUUACCUGAAGUCGAAGCAGCGUCCGCCGAGAUUCCUGGCGUCCGGAGUGUCGUGUUGUUUGGAGUAGAAACGCACGUGUGUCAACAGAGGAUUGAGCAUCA	0.171
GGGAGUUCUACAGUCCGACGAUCUGGCAAGACUACCAUCCUGUACAAACUGAAGUUGGGGGAGAUUGUCACCACCAUCCCCACUACCGGUGAGUCCAGGACAAGGAGCGGGAAGCAGGAAUGUCGCUUUGAGCCUUGUCGGGGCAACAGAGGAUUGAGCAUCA	0.0788
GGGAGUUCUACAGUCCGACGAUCACCUAGCCAGUCCAACCUCCACCAUGGGGGCCGUGACCUGGCUACUGCCAGGCAUCUUUCCCGCUUUGUUUGCCCUCACUCCCGAAGGUGGGGUCCUCAAGAAAAUCAUCAGGCACAAGCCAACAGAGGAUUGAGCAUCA	0.126
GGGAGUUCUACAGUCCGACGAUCGUCACCCAGCUGUUGCAGUCUUCGCAUAAGGAAUCCAGCUUCGAUGUCAUUCUGUCGGGUGCCGUCCCAGGAAGCACCUCUCUGCACAGUGCUGAGGUUCUGGCUGAGAUGGCCCGGAUCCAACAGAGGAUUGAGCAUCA	0.119
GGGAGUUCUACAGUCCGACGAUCGUUCUUACCACUUCUCUUCCUCCUCACCCCAGAUACUUCCUCUUCCCCACAACCAAUGUACACCGUAAUUGUAAUGUUUUAGACUUGACAGAAACUUUCCUGUAUUCUGUAUAUAAAAACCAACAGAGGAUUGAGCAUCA	1.34
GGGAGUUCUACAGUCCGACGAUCGAUUAUGUGCCUGCUUUAAAAGGUUUGGGUGAAUGCCAUCUUAUGAUGGCAAAAGCAGCUCCCGUUGAUUAUCUUGAUGGAAAAGCCGUAGACUACAUAGAAAAAGCACUGGAAUAUUUUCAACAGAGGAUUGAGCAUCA	1.41
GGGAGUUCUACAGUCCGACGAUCCAGAGCAUAGCGAUUGUUUUUGGCCCCACCCUUCUAAAGCCAGAAAGAGAGACUGGUAAUACCGCAGUUCAUACUGUGUACCAGAACCAGAUUGUAGAGCUGAUUCUCCUGGAAUUAAGCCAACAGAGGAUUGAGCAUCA	0.266
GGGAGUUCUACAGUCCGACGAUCAGGCGGAGAGAACUGGCACUCUUCUCGGAUGACCGUUCACGGACAGUACAAUACCACAUAUACCGUGUACACACACAUACAAAUGUGUCGAUGCCCAUUCACAAACAGUACAGUACACGCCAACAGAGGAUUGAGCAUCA	0.101
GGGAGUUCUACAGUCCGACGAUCGGUAUCGCUGUUGAUCACCUUGGCCGCAACAUCUUCUGGACAGACUCUAACCUGGAUCGAACCGAAGUGGCGAAGCUGGACGGCACGCAGCGCCGGGUGCUCUUUGAGACUGACUUGGUGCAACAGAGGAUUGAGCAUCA	0.136

Excerpt of the above (set 3):
Substitution	binding fitness [natural log]
E54W	0.0202
L31N	0.123
T48L	0.18
V35P	-1.05
T37A	0.264
Q55V	-0.0345
R30Q	0.22
A49F	0.0592
V56S	-0.141
Q41E	0.207
K34H	0.241
